# Published values pooled from the literature.
# Compare with care: the assays were run in different laboratories. Values joined by “and” are separate records of one study, mostly repeats; a detail may differ. ± gives the spread as reported.
# ALPL: Alkaline phosphatase, tissue-nonspecific isozyme (ALPL, Homo sapiens, UniProt P05186)
# UniProt P05186, sequence (whole entry, looked up): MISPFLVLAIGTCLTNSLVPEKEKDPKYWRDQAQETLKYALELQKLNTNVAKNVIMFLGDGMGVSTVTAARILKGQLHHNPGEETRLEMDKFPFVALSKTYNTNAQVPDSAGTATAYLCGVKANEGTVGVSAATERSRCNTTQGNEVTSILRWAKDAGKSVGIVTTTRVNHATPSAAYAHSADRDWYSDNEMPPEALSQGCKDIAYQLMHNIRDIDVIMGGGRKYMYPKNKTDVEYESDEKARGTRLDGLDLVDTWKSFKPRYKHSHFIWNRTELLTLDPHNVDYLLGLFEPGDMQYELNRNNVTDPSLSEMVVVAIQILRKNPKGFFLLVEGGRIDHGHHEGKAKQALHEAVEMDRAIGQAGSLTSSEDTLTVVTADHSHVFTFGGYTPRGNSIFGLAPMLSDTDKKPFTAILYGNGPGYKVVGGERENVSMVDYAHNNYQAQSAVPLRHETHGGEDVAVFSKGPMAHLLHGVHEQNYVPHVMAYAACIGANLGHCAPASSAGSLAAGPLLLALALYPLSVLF
# Proteasome component C5/PSMB5 chymotrypsin-like site: Proteasome component C5/PSMB5, chymotrypsin-like site (Homo sapiens, UniProt P20618+P28074)
# UniProt P28074, sequence (whole entry, looked up): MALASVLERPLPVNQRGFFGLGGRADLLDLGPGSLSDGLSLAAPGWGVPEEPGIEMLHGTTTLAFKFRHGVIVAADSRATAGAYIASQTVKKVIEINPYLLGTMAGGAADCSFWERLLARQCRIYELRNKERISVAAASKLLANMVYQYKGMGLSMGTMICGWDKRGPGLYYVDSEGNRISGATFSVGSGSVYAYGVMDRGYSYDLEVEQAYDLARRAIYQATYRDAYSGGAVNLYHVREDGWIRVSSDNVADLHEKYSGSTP
# UniProt P20618, sequence (whole entry, looked up): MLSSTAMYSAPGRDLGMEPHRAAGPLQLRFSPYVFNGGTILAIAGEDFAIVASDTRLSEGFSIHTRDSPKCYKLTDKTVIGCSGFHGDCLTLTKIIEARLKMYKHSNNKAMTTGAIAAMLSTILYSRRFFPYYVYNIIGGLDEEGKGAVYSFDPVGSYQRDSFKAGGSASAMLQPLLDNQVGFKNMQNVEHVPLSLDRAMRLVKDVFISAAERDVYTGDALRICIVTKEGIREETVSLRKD
# Dual specificity protein phosphatase 5: Dual specificity protein phosphatase 5 (Homo sapiens, UniProt Q16690)
# UniProt Q16690, sequence (whole entry, looked up): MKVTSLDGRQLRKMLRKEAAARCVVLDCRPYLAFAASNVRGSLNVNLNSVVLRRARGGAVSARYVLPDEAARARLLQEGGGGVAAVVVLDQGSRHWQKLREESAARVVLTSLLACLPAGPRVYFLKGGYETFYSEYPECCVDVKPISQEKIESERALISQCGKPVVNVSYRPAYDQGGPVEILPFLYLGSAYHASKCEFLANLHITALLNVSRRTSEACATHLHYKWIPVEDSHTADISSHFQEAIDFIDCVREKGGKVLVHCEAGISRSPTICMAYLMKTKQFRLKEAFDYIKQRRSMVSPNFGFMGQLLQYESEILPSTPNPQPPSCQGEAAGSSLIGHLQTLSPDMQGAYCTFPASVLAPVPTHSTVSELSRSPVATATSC
# Genome polyprotein NS2B-NS3 protease: Genome polyprotein, NS2B-NS3 protease (ZIKV, UniProt A0A024B7W1)
# SULT2A1: Sulfotransferase 2A1 (SULT2A1, Homo sapiens, UniProt Q06520)
# UniProt Q06520, sequence (whole entry, looked up): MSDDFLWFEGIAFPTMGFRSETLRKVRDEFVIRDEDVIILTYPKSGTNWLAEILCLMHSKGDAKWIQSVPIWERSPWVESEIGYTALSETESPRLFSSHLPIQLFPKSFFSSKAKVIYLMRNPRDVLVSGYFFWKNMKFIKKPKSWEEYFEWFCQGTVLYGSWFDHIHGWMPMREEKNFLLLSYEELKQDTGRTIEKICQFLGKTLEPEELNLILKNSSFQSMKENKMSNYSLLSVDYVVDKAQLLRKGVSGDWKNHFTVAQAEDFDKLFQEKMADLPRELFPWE
# topA: DNA topoisomerase 1 (topA, Escherichia coli, UniProt P06612)
# UniProt P06612, sequence (whole entry, looked up): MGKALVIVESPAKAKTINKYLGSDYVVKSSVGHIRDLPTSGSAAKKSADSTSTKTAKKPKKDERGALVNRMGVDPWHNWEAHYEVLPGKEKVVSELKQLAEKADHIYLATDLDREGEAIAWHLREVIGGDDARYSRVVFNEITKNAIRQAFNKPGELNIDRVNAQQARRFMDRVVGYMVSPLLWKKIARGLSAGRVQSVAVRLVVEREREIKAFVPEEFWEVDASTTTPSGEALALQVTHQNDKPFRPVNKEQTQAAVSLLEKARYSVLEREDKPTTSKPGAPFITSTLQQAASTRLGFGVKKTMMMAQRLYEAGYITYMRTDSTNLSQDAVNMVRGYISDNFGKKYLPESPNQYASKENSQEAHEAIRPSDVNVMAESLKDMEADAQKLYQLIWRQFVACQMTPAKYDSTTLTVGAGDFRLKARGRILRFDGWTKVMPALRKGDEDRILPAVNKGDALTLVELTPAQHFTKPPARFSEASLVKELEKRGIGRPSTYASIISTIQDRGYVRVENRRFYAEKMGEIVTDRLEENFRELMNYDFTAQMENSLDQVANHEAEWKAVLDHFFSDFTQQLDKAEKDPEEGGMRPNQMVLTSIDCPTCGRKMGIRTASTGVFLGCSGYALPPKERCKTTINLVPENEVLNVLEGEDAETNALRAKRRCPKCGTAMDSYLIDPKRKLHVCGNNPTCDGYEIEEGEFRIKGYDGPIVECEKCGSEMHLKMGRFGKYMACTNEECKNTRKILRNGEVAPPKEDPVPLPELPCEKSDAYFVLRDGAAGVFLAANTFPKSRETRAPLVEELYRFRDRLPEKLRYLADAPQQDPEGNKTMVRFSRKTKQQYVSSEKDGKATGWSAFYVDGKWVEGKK
# UniProt P17988, sequence (whole entry, looked up): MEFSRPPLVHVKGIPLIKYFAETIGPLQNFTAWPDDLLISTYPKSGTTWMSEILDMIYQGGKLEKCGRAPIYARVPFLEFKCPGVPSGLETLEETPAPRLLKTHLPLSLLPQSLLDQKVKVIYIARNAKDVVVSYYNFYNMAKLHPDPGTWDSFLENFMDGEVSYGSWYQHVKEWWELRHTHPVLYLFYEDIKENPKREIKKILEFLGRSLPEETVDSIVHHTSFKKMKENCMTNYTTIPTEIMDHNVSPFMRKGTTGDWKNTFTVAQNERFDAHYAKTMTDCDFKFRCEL
# UniProt P02716, sequence (whole entry, looked up): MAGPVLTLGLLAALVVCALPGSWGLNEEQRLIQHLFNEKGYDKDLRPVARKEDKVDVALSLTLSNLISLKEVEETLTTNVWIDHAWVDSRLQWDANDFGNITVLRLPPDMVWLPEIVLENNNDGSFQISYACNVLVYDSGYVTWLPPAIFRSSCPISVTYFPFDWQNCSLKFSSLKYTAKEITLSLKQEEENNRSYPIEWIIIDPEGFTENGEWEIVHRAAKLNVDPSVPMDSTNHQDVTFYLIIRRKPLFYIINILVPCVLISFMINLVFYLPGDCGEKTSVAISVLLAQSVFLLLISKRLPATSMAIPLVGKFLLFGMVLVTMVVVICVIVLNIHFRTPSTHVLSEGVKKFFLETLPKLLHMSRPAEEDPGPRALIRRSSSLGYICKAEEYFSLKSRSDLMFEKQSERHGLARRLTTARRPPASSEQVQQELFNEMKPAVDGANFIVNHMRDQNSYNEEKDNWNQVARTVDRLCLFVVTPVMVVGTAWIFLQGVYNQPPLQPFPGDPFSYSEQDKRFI
# UniProt Q7Z418, sequence (whole entry, looked up): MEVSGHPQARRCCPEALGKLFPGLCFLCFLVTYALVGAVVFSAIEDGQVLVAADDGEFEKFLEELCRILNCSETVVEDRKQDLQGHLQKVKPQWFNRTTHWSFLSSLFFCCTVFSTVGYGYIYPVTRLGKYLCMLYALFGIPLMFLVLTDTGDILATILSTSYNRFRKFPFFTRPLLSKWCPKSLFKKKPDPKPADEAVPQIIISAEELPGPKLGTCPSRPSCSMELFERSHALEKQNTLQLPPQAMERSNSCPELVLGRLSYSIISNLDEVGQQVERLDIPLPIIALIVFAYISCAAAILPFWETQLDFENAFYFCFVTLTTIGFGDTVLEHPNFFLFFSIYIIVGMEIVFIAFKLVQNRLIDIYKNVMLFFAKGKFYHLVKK
# UniProt C7C422, sequence (whole entry, looked up): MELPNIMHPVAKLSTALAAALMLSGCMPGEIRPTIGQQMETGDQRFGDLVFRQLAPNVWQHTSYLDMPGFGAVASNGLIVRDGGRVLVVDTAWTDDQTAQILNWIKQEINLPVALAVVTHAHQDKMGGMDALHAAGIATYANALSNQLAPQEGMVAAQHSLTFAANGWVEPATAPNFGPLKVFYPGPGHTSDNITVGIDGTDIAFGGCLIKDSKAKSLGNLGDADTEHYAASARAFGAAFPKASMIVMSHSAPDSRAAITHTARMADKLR
# UniProt P11802, sequence (whole entry, looked up): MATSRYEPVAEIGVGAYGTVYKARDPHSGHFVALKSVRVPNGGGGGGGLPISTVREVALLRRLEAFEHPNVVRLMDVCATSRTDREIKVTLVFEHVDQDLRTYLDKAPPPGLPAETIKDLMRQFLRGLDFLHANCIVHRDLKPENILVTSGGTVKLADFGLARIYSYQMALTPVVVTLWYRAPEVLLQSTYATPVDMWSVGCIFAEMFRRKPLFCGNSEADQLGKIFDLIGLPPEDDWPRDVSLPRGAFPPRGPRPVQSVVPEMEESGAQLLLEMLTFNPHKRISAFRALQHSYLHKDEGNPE
# UniProt Q8WTS6, sequence (whole entry, looked up): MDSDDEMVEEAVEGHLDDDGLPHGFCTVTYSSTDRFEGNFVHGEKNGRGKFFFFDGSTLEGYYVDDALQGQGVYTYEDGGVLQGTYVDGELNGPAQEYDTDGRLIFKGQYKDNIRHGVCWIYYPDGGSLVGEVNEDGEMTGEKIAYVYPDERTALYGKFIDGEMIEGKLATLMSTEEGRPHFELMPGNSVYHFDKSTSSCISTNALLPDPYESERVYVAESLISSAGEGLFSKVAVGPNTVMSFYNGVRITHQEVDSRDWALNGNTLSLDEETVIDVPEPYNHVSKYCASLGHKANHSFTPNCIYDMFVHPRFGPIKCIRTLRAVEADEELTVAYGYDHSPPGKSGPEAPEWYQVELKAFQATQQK
# UniProt Q2FV99, sequence (whole entry, looked up): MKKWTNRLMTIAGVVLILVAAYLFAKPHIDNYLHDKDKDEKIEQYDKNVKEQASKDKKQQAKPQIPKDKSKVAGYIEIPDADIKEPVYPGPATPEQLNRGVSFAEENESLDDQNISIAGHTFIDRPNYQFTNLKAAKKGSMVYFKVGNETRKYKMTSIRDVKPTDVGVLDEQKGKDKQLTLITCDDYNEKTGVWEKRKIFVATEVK
Substance,target,assay,system,setting,IC50
COc1cc(/C=C(\C#N)C(=O)Nc2nnc(C(F)(F)F)s2)ccc1OCc1ccc(C(F)(F)F)cc1C(F)(F)F,"PGC-1α/ERRα, human","reporter gene, antagonist, luciferase reporter",,,3.97 ± 0.29 µM
Phoxim oxon,rat liver carboxylesterase,"enzyme activity, inhibitor","rat, postnatal day 1, liver homogenate",added: p-nitrophenyl valerate,0.0002 µM
O=C(O)c1cc(-c2ccccc2Cl)n[nH]1,ALPL,"enzyme activity, inhibitor, luminescence",,"added: 0.1 M DEA, 50 µM CDP-star",0.339 ± 0.022 µM
O=c1[nH]c2ccccc2n1C1CCN(Cc2ccc(-c3nc4cc5[nH]cnc5cc4nc3-c3ccccc3)cc2)CC1,"PSMB5 (Homo sapiens, UniProt P28074)",enzyme activity,,"added: Suc-LLVY-AMC substrate, ATP",3.7 ± 0.9 µM
Oc1c(Cl)cc(-c2ccccc2)cc1Cl,"Sult1a1 (Rattus norvegicus, UniProt P17988)","enzyme activity, inhibitor",,,0.27 µM
C[C@@H]1C[C@H]2[C@@H]3CCC4=CC(=O)C=C[C@]4(C)[C@@]3(Cl)[C@@H](O)C[C@]2(C)[C@@]1(OC(=O)c1ccco1)C(=O)CCl,"ABCC1 (Homo sapiens, UniProt P33527)","substrate efflux, inhibitor, flow cytometry",ABCC1-overexpressing SupT1-Vin cells,added: BODIPY-FL-vinblastine 500 nM,1.8 ± 1.1 µM
CCCCCCCCCC(=O)N[C@@H](C)C(=O)N[C@@H](Cc1ccc(OC)cc1)C(=O)N[C@@H](CC(C)C)C(=O)C(=O)Nc1ccccc1,Proteasome component C5/PSMB5 chymotrypsin-like site,"enzyme activity in cells, inhibitor",,,0.234 µM
O=C1OC2(c3cc(Cl)c(O)cc3Oc3cc(O)c(Cl)cc32)c2ccccc21,Dual specificity protein phosphatase 5,phosphatase activity,,"0 min, without DTT, initial velocity, added: pNPP",241 ± 5.3 µM
CCCC(=O)N[C@@H](C)C(=O)N[C@@H](C(=O)N[C@@H]1C(=O)N[C@@H](CC(C)C)C(=O)N[C@H]2CC[C@@H](O)N(C2=O)[C@@H](Cc2ccccc2)C(=O)N(C)[C@@H](Cc2ccc(O)cc2)C(=O)N[C@@H](C(C)C)C(=O)O[C@H]1C)[C@@H](C)OC(=O)[C@H](C)NC(=O)CCC,"Chymotrypsinogen A (Bos taurus, UniProt P00766)","enzyme activity, inhibitor",,with preincubation,0.22 µM
O=C1NC(=S)NC(=O)C1=Cc1cn(C(=O)c2ccc3ccccc3c2)c2ccc(Cl)cc12,"DNA polymerase eta (POLH, Homo sapiens, UniProt Q9Y253)","enzyme activity, inhibitor, fluorescence",,,17 µM
Oc1ccc(-c2nc3cc4nc5ccccc5nc4cc3[nH]2)cc1,"Genome polyprotein, protease (dengue virus type 2, UniProt P29990)","enzyme activity, inhibitor, fluorescence",,pH 8.5,184 µM
Cc1ccccc1-n1cc(COc2ccnc3cc(Cl)ccc23)nn1,"FP2A (Plasmodium falciparum, UniProt Q8I6U4)","enzyme activity, inhibitor, fluorescence",,"pH 5.5, with preincubation",20.9 µM
Cc1cc(-c2c[se]cc2-c2ccc(O)c(C)c2)ccc1O,"ESR2 (Homo sapiens, UniProt Q92731)",antagonist,HEK293T,added: estradiol 10 nM,0.341 µM
CC(C)C[C@H](NC(=O)[C@H](Cc1ccccc1)NC(=O)[C@H](C)NC(=O)OCc1ccccc1)C(=O)C(=O)Nc1ccccc1,Proteasome component C5/PSMB5 chymotrypsin-like site,"enzyme activity in cells, inhibitor",,,2.01 µM
NCc1ccc(-c2ncc(OCC3CCNCC3)nc2-n2ccnc2)cc1,Genome polyprotein NS2B-NS3 protease,inhibitor,Zika virus,,6.6 µM
Oc1ccc(-c2ccc(Cl)cc2)c(Cl)c1,SULT2A1,"enzyme activity, inhibitor, radiometric",,pH 7.4,1.5 µM
CCCC[C@H](NC(=O)[C@@H](NC(=O)[C@H](CCCNC(=N)N)NC(=O)CN)[C@@H](C)O)C(=O)N[C@@H](CCC(N)=O)C(=O)N[C@H](C(=O)N[C@@H](C)C(=O)N[C@@H](CCCNC(=N)N)C(=O)N[C@@H](CCCCN)C(=O)N[C@@H](CO)C(=O)N[C@H](C(=O)NCC(=O)NCC(N)=O)[C@@H](C)O)[C@@H](C)O,"SETD7 (Homo sapiens, UniProt Q8WTS6)","H3K4 peptide methylation, inhibitor, MALDI-TIMS-TOF MS",,"30 min, 37 °C, added: H3K4 peptide 10 µM, SAM 30 µM",18.4 µM
Fc1cccc(-n2cnc3c(NCc4nc5c(F)c(F)ccc5[nH]4)nc(N4CCOCC4)nc32)c1,"Cyclin-dependent kinase 4, with cyclin D1 (CDK4, Homo sapiens, UniProt P11802)","enzyme activity, inhibitor",,,0.576 µM
CC(C)(C)CC(C)(C)c1ccc(OC(=O)c2ccccc2)cc1,topA,"enzyme activity, inhibitor",,,> 250 µM
CC[C@H](C)[C@H](N)C(=O)N[C@H](C(=O)N[C@@H](CCSC)C(=O)NCC(=O)N[C@@H](CO)C(=O)N[C@@H](CC(C)C)C(=O)N[C@@H](Cc1ccccc1)C(=O)N[C@@H](Cc1ccccc1)C(=O)N[C@H](C(=O)O)C(C)C)[C@@H](C)O,"HLA class I histocompatibility antigen, A alpha chain, allele A*02:03 (Homo sapiens, UniProt P04439)","peptide binding, radiolabelled peptide competition",,added: radiolabelled standard peptide,< 0.0005 µM
COc1cc([C@@H]2c3cc4c(cc3[C@H](O)[C@H]3COC(=O)[C@H]23)OCO4)cc(OC)c1OC,"tubulin alpha/beta (Leishmania infantum, UniProt A0A381MCS3+A4HTR0)","tubulin polymerization, inhibitor",,37 °C,0.3 µM and 0.32 µM
COc1ccc(C)cc1S(=O)(=O)Nc1cccnc1,ALPL,"enzyme activity, inhibitor, luminescence",,"added: CDP-star substrate, 100 mM DEA",1.78 µM
COc1ccc(/C=C(\C#N)c2ccc([N+](=O)[O-])cc2)cc1,topA,"enzyme activity, inhibitor",,,> 250 µM
NC(N)=NC(=O)c1nc(Cl)c(N2CCCCCC2)nc1N,"Asic1 (Mus musculus, UniProt Q6NXK8)","ASIC current, whole-cell patch clamp",mouse cortical neurons,pH 6.0,20.1 µM
CCCCCCCCCCCCCCCC(=O)N[C@@H](CCC(=O)NCCCC[C@H](NC(=O)[C@H](Cc1ccc(O)cc1)NC(=O)[C@H](CC(=O)O)NC(=O)[C@H](CO)NC(=O)[C@@H](NC(=O)[C@H](Cc1ccccc1)NC(=O)[C@@H](NC(=O)CNC(=O)[C@@H](N)CCC(=O)O)[C@@H](C)O)[C@@H](C)CC)C(=O)N[C@H](C(=O)N[C@@H](C)C(=O)N[C@@H](CC(C)C)C(=O)N[C@@H](CC(=O)O)C(=O)N[C@@H](CCCCN)C(=O)N[C@H](C(=O)N[C@@H](CCCNC(=N)N)C(=O)N[C@@H](CCC(N)=O)C(=O)N[C@@H](CCC(N)=O)C(=O)N[C@@H](CCC(=O)O)C(=O)N[C@@H](Cc1ccccc1)C(=O)N[C@H](C(=O)N[C@@H](CC(N)=O)C(=O)N[C@@H](Cc1c[nH]c2ccccc12)C(=O)N[C@@H](CC(C)C)C(=O)N[C@@H](CC(C)C)C(=O)N[C@@H](C)C(=O)N[C@@H](CCC(N)=O)C(=O)N[C@@H](CCCCN)C(N)=O)C(C)C)[C@@H](C)CC)[C@@H](C)CC)C(=O)O,"Gastric inhibitory polypeptide receptor (Mus musculus, UniProt Q0P543)","cAMP response, antagonist, CRE-luciferase reporter",BHK,"3 h, 37 °C, added: 50 pM GIP",0.0351 µM
COc1ccc(N2C(=O)/C(=C/c3ccco3)C(=O)NC2=S)cc1,"Cell death protein 3 (ced-3, Caenorhabditis elegans, UniProt P42573)","enzyme activity, inhibitor",crude E. coli lysate,added: 20 µM Ac-DEVD-AMC,19.6 µM
Oc1ccc(-c2cccc(Cl)c2)cc1Cl,SULT2A1,"enzyme activity, inhibitor, radiometric",,pH 7.4,23 µM
CCn1nc(-c2cccs2)nc2c(=O)n(C)c(=O)nc1-2,"Cathepsin B (CTSB, Homo sapiens, UniProt P07858)","enzyme activity, inhibitor, fluorescence",,,0.072 µM
Clc1nc2n[nH]nc2nc1Cl,Genome polyprotein NS2B-NS3 protease,"enzyme activity, inhibitor",Zika virus,"pH 8.0, added: 20 µM Pyr-RTKR-AMC",0.82 µM
NC(Cc1cc(O)c(O)cc1O)C(=O)O (racemic),"KDM4E (Homo sapiens, UniProt B2RXH2)","enzyme activity, inhibitor, fluorescence",,,5 µM
COc1ccc(CCN2CCN(c3ccccc3OC)CC2)cc1OC,"Cytochrome P450 2C9 (CYP2C9, Homo sapiens, UniProt P11712)","enzyme activity, inhibitor","human, liver microsomes",,> 100 µM
c1cncc(OC[C@@H]2CCN2)c1,mouse brain nicotinic receptors,,brain,"low-affinity site, averaged regions",0.14 µM
O=C(O)c1cccc(C(=O)O)n1,"blaNDM-1 (Klebsiella pneumoniae, UniProt C7C422)","enzyme activity, inhibitor, absorbance",,,0.84 µM
NCc1ccc(-c2ncc(OCC3CCNCC3)nc2-c2ccc(-c3ccoc3)cc2CO)cc1,Genome polyprotein NS2B-NS3 protease,inhibitor,Zika virus,,> 10 µM
Cc1c(CC(C)(C)C(=O)O)n(Cc2ccc(Cl)cc2)c2ccc(F)cc12,"KCNK18 (Homo sapiens, UniProt Q7Z418)","ion flux, inhibitor",,,7.35 µM
Cc1ccc(/C=C2\SC(=S)N(c3cccc(Cl)c3)C2=O)cc1[N+](=O)[O-],"srtA (Staphylococcus aureus, UniProt Q2FV99)","enzyme activity, inhibitor",,,> 1000 µM
O=C(Nc1ccc([N+](=O)[O-])cc1[N+](=O)[O-])c1ccc2c(c1)OCO2,"MAOB (Homo sapiens, UniProt P27338)","enzyme activity, inhibitor",,,0.056 µM
CC12CCC(OC(=O)NCCCn3ccnc3)CC1CCC1C2CCC2(C)C(c3ccc(=O)oc3)CCC12O (stereo not drawn),"Atp1a2, with beta-1 subunit (Rattus norvegicus, UniProt P06686)","pump current, inhibitor, two-electrode voltage clamp",Xenopus oocytes expressing β1,-60 mV,0.987 µM
COc1cc(-c2nc3sc(C)c(C)c3c(=O)[nH]2)ccc1O,"Gag-Pol polyprotein, reverse transcriptase RNase H (gag-pol, Human immunodeficiency virus 1, UniProt P03366)","RNase H activity, inhibitor, fluorescent RNA/DNA hybrid",,,> 50 µM
NCc1ccc(-c2ncc(OCC3CCNCC3)nc2CCN2CCOCC2)cc1,Genome polyprotein NS2B-NS3 protease,inhibitor,Zika virus,,> 50 µM
CCOc1cc(Oc2ccc(C(F)(F)F)cc2Cl)ccc1[N+](=O)[O-],"Sodium/iodide cotransporter (Rattus norvegicus, UniProt Q63008)","iodide uptake, inhibitor",FRTL-5,,2 µM
O=C([O-])c1ccccc1-c1c2cc(Br)c(=O)cc-2oc2[c]([Hg+])c([O-])c(Br)cc12.[Na+].[Na+].[OH-],Dual specificity protein phosphatase 5,phosphatase activity,,"0 min, without DTT, initial velocity, added: pNPP",16.1 ± 0.7 µM
NC(=O)c1c(N)sc2c1CCCCC2,"Gag-Pol polyprotein, reverse transcriptase p66/p51 (gag-pol, Human immunodeficiency virus 1, UniProt P03366, Y1100F)",inhibitor,HIV-1,,20 µM
C=CC[N+]1([C@H]2C[C@H]3[C@@H]4CC[C@H]5C[C@H](O)[C@@H](N6CCOCC6)C[C@]5(C)[C@H]4CC[C@]3(C)[C@H]2OC(C)=O)CCCC1,"Chrnd/Chrna1/Chrne (Mus musculus, UniProt P02716+P04756+P20782)","ion current, competitive antagonist, outside-out patch clamp",,"pH 7.3, holding -50 mV, peak current, added: 300 µM acetylcholine",0.0225 µM
CCCCN1c2ccccc2C=C(c2ccc3ccccc3n2)C1c1ccccc1 (stereo not drawn),"virF (Shigella flexneri, UniProt P0A2T1)","reporter gene expression, inhibitor","Escherichia coli, virB-lacZ reporter strain","3 h, 37 °C, 6.2% DMSO, added: 1 mM IPTG",> 100 µM

# Some of these lines once more:
Substance,target,assay,system,setting,IC50
NCc1ccc(-c2ncc(OCC3CCNCC3)nc2CCN2CCOCC2)cc1,Genome polyprotein NS2B-NS3 protease,inhibitor,Zika virus,,> 50 µM
NC(Cc1cc(O)c(O)cc1O)C(=O)O (racemic),"KDM4E (Homo sapiens, UniProt B2RXH2)","enzyme activity, inhibitor, fluorescence",,,5 µM
O=c1[nH]c2ccccc2n1C1CCN(Cc2ccc(-c3nc4cc5[nH]cnc5cc4nc3-c3ccccc3)cc2)CC1,"PSMB5 (Homo sapiens, UniProt P28074)",enzyme activity,,"added: Suc-LLVY-AMC substrate, ATP",3.7 ± 0.9 µM
CC12CCC(OC(=O)NCCCn3ccnc3)CC1CCC1C2CCC2(C)C(c3ccc(=O)oc3)CCC12O (stereo not drawn),"Atp1a2, with beta-1 subunit (Rattus norvegicus, UniProt P06686)","pump current, inhibitor, two-electrode voltage clamp",Xenopus oocytes expressing β1,-60 mV,0.987 µM
Oc1ccc(-c2nc3cc4nc5ccccc5nc4cc3[nH]2)cc1,"Genome polyprotein, protease (dengue virus type 2, UniProt P29990)","enzyme activity, inhibitor, fluorescence",,pH 8.5,184 µM
